Measured values pooled from the literature.
Lines come from different studies, so protocols differ. ± marks the error that the study gave.

`CC1=C(CC(=O)Oc2ccc(OC(=O)CCCO[N+](=O)[O-])c(C(=O)Oc3ccc(-c4cc(=S)ss4)cc3)c2)c2cc(F)ccc2/C1=C\c1ccc([S+](C)[O-])cc1` (stereo not shown) has an IC50 ratio of greater than 200 fold (HPDE and BxPC-3; cell growth; 24 h; reference: HPDE over BxPC-3).
Under “maximal cord disruption”, `COc1ccc(/C=C\c2cc(OC)c(OC)c(OC)c2)cc1O` is recorded as greater than 96% (ECFC and ADSC co-culture; endothelial tube formation; highest concentration tested; reference: VEGF 20 ng/mL).
For `Clc1ccc(-c2cc3ccccc3[nH]2)cc1Cl`, the inhibition was 68.2 ± 6.3% (HEK293 NF-κB luciferase reporter; reporter gene, measured: NF-κB; 50 µM, 6 h, with: TNFα).
With `CC1(C)CC(=O)C2=C(C1)Nc1cc(-c3ccccc3)ccc1NC2c1ccc(N2CCOCC2)cc1` (stereo not shown) the EC50 was 17 ± 1.41 µM (H4; cytoprotection; with: thapsigargin 7.5 µM).
For `CSVTCR`, the adherent cells was 99% (bovine aortic endothelial cells; peptide; 2 µg coated per well, 30 to 60 min; reference: thrombospondin-coated wells).
With `Cn1c(-c2ccccc2)cc2ccccc21` the inhibition was 0% (HEK293 NF-κB luciferase reporter; reporter gene, measured: NF-κB; 50 µM, 6 h, with: TNFα).
The combination index of `COc1cccc2c1C(=O)c1c(O)c3c(c(O)c1C2=O)C[C@@](O)(C(C)=O)C[C@@H]3O[C@H]1C[C@H](N)[C@H](O)[C@H](C)O1` is reported as 0.89 ± 0.03 (RS4-11; 72 h, with: cytotoxic drug; below 1 means synergy).
`Brc1ccc(-c2cc3ccccc3[nH]2)cc1` has a viability of 86.7% (HEK293; cell growth or viability; 50 µM).
Under “cells without foci”, `exonuclease 1 (human)` is recorded as 40% (NIH3T3; confocal microscopy, measured: YFP-tagged compound; concentration not given, PCNA replication foci, with: co-transfected CFP-PCNA).
`C[C@](Cc1c[nH]c2ccccc12)(NC(=O)OC1[C@H]2C[C@@H]3C[C@@H](C[C@H]1C3)C2)C(=O)NC[C@H](NC(=O)CCC(=O)O)c1ccccc1` (stereo partly shown): “cytosolic Ca2+ increase” “inhibited” (NCI-H727; inhibited, antagonist, Fura-2 AM; 1 µM, with: CCK-8 10 nM).
With `c1cncc(-c2cc3ccccc3[nH]2)c1` the inhibition was 12.3 ± 4.4% (HEK293 NF-κB luciferase reporter; reporter gene, measured: NF-κB; 50 µM, 6 h, with: TNFα).
The ID50 of `C=CCc1ccc(O)c(OC)c1` is reported as 5.43 ± 0.715 µg/mL (mES-D3 cell; cardiomyocyte differentiation, RT-PCR, measured: MHC; 240 h).
`Fc1cc(F)cc(-c2cc3ccccc3[nH]2)c1` gave an inhibition of 62.3 ± 8.3% (HEK293 NF-κB luciferase reporter; reporter gene, measured: NF-κB; 50 µM, 6 h, with: TNFα).
For `COc1cccc2c1C(=O)c1c(O)c3c(c(O)c1C2=O)C[C@@](O)(C(=O)CO)C[C@@H]3O[C@H]1C[C@H](N)[C@H](O)[C@H](C)O1`, the drug effluxed was roughly 80% (KB-V1 multidrug-resistant; flow cytometry; 5 µM, 2 h plus 2 h washout).
`COc1cc(N2CCC(N3CCN(C)CC3)CC2)ccc1Nc1ncc(Cl)c(Nc2ccccc2S(=O)(=O)C(C)C)n1` has a therapeutic window of 2.47 (NIH3T3 in PANC/NIH microtissues; fibroblast toxicity; 168 h, chronic toxicity, unit not given; reference: AC50 ATP over AC50 NanoLUC, day 7).
`Ac-PARAC-NH2 (N-acetyl, C-amide)` gave an ID50 of greater than 1000 µM (GM7373 bovine endothelial; cell proliferation, inhibitor; peptide; 24 h, with: 0.55 nM FGF2, 0.4% FCS).
`VCTGSC` has an adherent cells of 3% (bovine aortic endothelial cells; peptide; 2 µg coated per well, 30 to 60 min; reference: thrombospondin-coated wells).
For `H-ARPCA-NH2 (C-amide)`, the ID50 was 500 µM (GM7373 bovine endothelial; cell proliferation, inhibitor; peptide; 24 h, with: 0.55 nM FGF2, 0.4% FCS).
For `Cc1ccc(-c2cc3ccccc3[nH]2)cc1`, the inhibition was 96.6 ± 0.6% (HEK293 NF-κB luciferase reporter; reporter gene, measured: NF-κB; 50 µM, 6 h, with: TNFα).
With `LRRFSTMPFMFININNVINF` the inhibition was 98.58 ± 0.12% (HUVEC; cell adhesion, real-time cell analysis; peptide; 100 µM, 3 h; reference: vehicle).
The GI50 of `C#C[C@@]1(O)[C@@H](CO)O[C@@H](n2cc(Br)c3c(N)ncnc32)[C@@H]1O` is reported as 0.064 µM (SR; cell growth or viability, SRB; 48 h).
For `CO/C1=C\C(C)=C\[C@@H](C)[C@@H](O)[C@@H](C)C/C(C)=C/C=C/[C@H](OC)[C@@H]([C@@H](C)[C@@H](O)[C@H](C)[C@@]2(O)C[C@@H](O)[C@H](C)[C@@H](C(C)C)O2)OC1=O`, “cell surface pH” read 9.06 ± 0.06 (CHO-K1; fluorescein-WGA ratio imaging; concentration not given, 37 °C, medium pH 7.4).
For `LRRFSTMPFAFININNVINF`, the inhibition was 46.6 ± 4.23% (HUVEC; cell proliferation, WST-1; peptide; 100 µM, 72 h; reference: vehicle).
`TAGSCLRKFSTM` has a cell adhesion of roughly 25% (bovine aortic endothelial cells; peptide, peptide-coated plate; 10 to 25 µg/well, 30 to 60 min, 37 °C).
`C=C(C[C@H](N)C(=O)O)C(=O)Nc1ccc(Cl)cc1` — result for “lowest significantly active concentration”: 320 µM (MCF7 cells; cell growth inhibition; 72 h; reference: vehicle).
With `CC1(C)CC(=O)C2=C(C1)Nc1cc(Br)ccc1NC2c1ccc(N2CCCC2)cc1` (stereo not shown) the EC50 was greater than 50 µM (H4; cytoprotection; with: thapsigargin 7.5 µM).
For `Cc1cc(NC(=O)c2cccc(NC(=O)/C=C/CN(C)C)c2)ccc1Nc1nccc(-c2cccnc2)n1`, “phosphorylation of FMN1 Ser-Pro sites” read “inhibited” (HEK-293T expressing GFP-FMN1; JNK pathway, inhibitor, LC-MS/MS; 5 µM, 1 h pretreatment, with: anisomycin 10 µg/mL for 1 h).
For `COc1ccc(C(=O)Nc2ccc(N3CCN(c4ccc(OC)cc4)CC3)cc2C(=O)O)cc1`, activity read “inactive” (CHO-K1; cell growth; concentration not given, with: DFMO at IC50 + spermidine 1 µM).
`CSTSCR` has an adherent cells of 65% (bovine aortic endothelial cells; peptide; 2 µg coated per well, 30 to 60 min; reference: thrombospondin-coated wells).
With `Cc1nc(Nc2ncc(C(=O)Nc3c(C)cccc3Cl)s2)cc(N2CCN(CCO)CC2)n1` the therapeutic window was 3.58 (NIH3T3 in PANC/NIH microtissues; fibroblast toxicity; 168 h, chronic toxicity, unit not given; reference: AC50 ATP over AC50 NanoLUC, day 7).
`Nc1cccc(-c2cc3ccccc3[nH]2)c1` has a viability of 70.7% (HEK293; cell growth or viability; 50 µM).
`CC(=O)O[C@H]1C(=O)[C@@]2(C)[C@H]([C@H](OC(=O)c3ccccc3)[C@]3(O)C[C@H](OC(=O)[C@H](O)[C@@H](NC(=O)c4ccccc4)c4ccccc4)C(C)=C1C3(C)C)[C@]1(OC(C)=O)CO[C@@H]1C[C@@H]2O`: “proliferation and colony formation” “no effect” (PC-9 expressing CD8-EGFR-CL; 2.5 nM; reference: parental PC-9 cells).
For `Oc1c(Cl)cc(Cl)cc1Sc1cc(Cl)cc(Cl)c1O`, efferocytosis read “decreased” (bone marrow-derived macrophages; flow cytometry; 10 µM, 6 h, with: apoptotic Jurkat T cells; reference: vehicle).
`CCN1C(=O)CS/C1=N/N=C(\C)c1ccccn1` has an inhibition of 67.3% (Vero; cell growth or viability, SRB; 100 µg/mL, 48 h).
For `CN(C)c1ccc(C2Nc3ccc(C(=O)c4ccccc4)cc3NC3=C2C(=O)CC(C)(C)C3)cc1` (stereo not shown), the EC50 was 15.1 ± 0.67 µM (H4; cytoprotection; with: thapsigargin 7.5 µM).
`COc1ccc(C[C@]2(O)COc3cc(O)cc(O)c3C2=O)cc1` has a GI50 of greater than 100 µM (Y79; cell growth or viability, resazurin; 48 h).
`CC(C)=CCn1c(-c2ccccc2)cc2ccccc21` has an inhibition of 47 ± 2.7% (HEK293 NF-κB luciferase reporter; reporter gene, measured: NF-κB; 50 µM, 6 h, with: TNFα).
For `CCN1C(=O)C(C(C)=O)S/C1=N/N=C(\C)c1ccccn1` (stereo not shown), the inhibition was 50.3% (Vero; cell growth or viability, SRB; 100 µg/mL, 48 h).
With `Ac-ARACA-NH2 (N-acetyl, C-amide)` the ID50 was greater than 1000 µM (GM7373 bovine endothelial; cell proliferation, inhibitor; peptide; 24 h, with: 0.55 nM FGF2, 0.4% FCS).
The cellular uptake of `RBRBRBRBRBRBRBRBB (PMO conjugate)` is reported as 60 (pLuc705 cells; flow cytometry; peptide; 2 µM, 24 h, serum-free, unit not given; higher = more uptake).
`C/C(=N\NC(N)=S)c1ccccn1` gave an inhibition of 61.2% (Vero; cell growth or viability, SRB; 100 µg/mL, 48 h).
`NC(=O)NCCC[C@@H](NS(=O)(=O)c1ccc(OCc2cc(Br)cc(Br)c2)cc1)C(=O)NO` — result for “lowest concentration inhibiting shedding”: 5 to 10 µM (L-428; measured: soluble NKG2D ligands; 24 h).
`Ac-GRPCG-NH2 (N-acetyl, C-amide)` gave an ID50 of 1000 µM (GM7373 bovine endothelial; cell proliferation, inhibitor; peptide; 24 h, with: 0.55 nM FGF2, 0.4% FCS).
For `Nc1nc(F)nc2c1ncn2[C@@H]1O[C@H](CO)[C@@H](O)[C@@H]1O`, the combination index was 0.85 ± 0.11 (RS4-11; 72 h, with: cytotoxic drug; below 1 means synergy).
With `Ac-GRPCA-NH2 (N-acetyl, C-amide)` the ID50 was 15 µM (GM7373 bovine endothelial; cell proliferation, inhibitor; peptide; 24 h, with: 0.55 nM FGF2, 0.4% FCS).
`CCN(CC)c1ccc(C2Nc3ccc(C(F)(F)F)cc3NC3=C2C(=O)CCC3)cc1` (stereo not shown) gave an EC50 of greater than 50 µM (H4; cytoprotection; with: thapsigargin 7.5 µM).
